# Measured values of several laboratories.
# A part holds a random share of what one study measured.

# Series 1 — method: universal PBM; form: double-stranded DNA, one strand shown; medium: in vitro; concentration: 600 nM; reading: higher = stronger binding
# Target: Sal-like protein 4, full length isoform A (SALL4, Homo sapiens, UniProt Q9UJQ4, residues 1-1053)
# Sequence of UniProt Q9UJQ4 (whole entry, looked up): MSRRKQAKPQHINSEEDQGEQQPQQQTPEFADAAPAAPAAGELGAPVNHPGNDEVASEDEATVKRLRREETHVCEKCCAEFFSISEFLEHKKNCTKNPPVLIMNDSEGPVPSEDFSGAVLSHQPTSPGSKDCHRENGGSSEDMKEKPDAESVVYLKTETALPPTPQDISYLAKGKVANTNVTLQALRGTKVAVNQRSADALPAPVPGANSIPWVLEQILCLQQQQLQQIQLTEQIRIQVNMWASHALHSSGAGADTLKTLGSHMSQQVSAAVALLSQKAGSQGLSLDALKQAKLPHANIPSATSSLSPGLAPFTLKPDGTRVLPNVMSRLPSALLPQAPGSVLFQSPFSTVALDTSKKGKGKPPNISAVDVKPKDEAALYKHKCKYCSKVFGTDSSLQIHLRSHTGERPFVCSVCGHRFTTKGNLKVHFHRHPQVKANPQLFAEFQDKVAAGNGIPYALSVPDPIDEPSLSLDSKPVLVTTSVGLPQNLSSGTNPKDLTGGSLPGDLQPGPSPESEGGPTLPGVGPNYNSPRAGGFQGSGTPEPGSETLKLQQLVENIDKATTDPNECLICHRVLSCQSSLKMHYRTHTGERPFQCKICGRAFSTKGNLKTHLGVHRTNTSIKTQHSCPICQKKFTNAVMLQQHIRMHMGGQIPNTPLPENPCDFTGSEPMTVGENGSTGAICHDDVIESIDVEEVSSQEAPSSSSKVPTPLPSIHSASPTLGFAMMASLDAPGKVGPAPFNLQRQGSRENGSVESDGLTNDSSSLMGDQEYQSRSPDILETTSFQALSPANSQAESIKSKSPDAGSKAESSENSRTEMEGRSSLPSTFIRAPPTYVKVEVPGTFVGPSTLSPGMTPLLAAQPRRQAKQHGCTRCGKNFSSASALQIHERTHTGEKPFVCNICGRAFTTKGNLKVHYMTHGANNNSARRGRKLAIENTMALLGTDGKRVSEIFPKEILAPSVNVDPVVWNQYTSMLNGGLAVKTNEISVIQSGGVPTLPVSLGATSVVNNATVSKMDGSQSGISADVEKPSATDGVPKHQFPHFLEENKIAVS
# Notes: 8-mer, flanks averaged, mean of replicates
Strand,E-score
AGGTCATG,-0.088
CGCTTTGC,-0.0115
AGAACCCT,-0.242
TACAGAAA,0.237
AACTAGTA,0.212
ATAGTCCG,0.0385
ATTATCCG,0.188
AGCAGGCA,-0.169
CAACACCC,-0.124
ACTAAGTC,0.0972
CATGACAC,0.144
GAGTGATA,0.155
CGGATCCA,-0.143
ATCGGTGG,-0.122
ACGAAGGG,-0.196
TGTGATAA,0.292
GTGAGCTA,0.0816
ATCCTTGA,0.102
ACTACCAC,0.028

# Series 2 — method: RNA Bind-n-Seq; form: RNA; medium: in vitro; concentration: 365 nM; baseline: no-protein control; reading: higher = stronger binding
# Target: RNA binding protein fox-1 homolog 2, RRM domain, GST-SBP tag (RBFOX2, Homo sapiens, UniProt O43251-10, residues 100-194)
# Notes: natural RNA segment, single round, ends assumed
# Construct (chain): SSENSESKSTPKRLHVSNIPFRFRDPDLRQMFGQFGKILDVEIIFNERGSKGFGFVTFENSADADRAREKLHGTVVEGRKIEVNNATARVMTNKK
Strand,RBNS enrichment (R)
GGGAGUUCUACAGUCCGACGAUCCUAACAAAGUCUCCGAAACUAGUAGGACUACUACCACAUCUUUAUCCCCUGAGCUGAUCCGCUUCACAGCUUCCUCCUCGUCUGGGAUGGUGCCCAAAUUGCCAGCUGGCUGGAAUUCUCGGGUGCCAA,0.177
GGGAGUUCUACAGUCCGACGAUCCUGCGCAAACAGGACGAAAUGGUUGAAGGUGUGAGCUACAUAUGCAUAUCUUUAAUCACACCUAUACCUACCAUACUGCACUGUAGCCUUUGCAUGUGAGUAUUAUGUACUGGAAUUCUCGGGUGCCAA,3.94
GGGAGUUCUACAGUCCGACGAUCCCUCAGCGGCCGCCCCGGCUGUGCCCUUCCCUGCUCUCCCGCUCUCUCAGGCCUCGGAAGGAAGAUCGGUGGCUGCGAGCUGAACUAAGGAGUAGGGCCUGUGGCUCAGCUGGAAUUCUCGGGUGCCAA,0.308
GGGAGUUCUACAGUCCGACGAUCAGUGCCCCUGCCCUAGGGGUGUCUGUCUCCAGAGGGGAGGGACAAAUCCCCUACUGGGGCCAUUUCAAUGGGGUAGUUUUUGGAUUUUUUUCCCCACUCACUUUUUAUUUUGGAAUUCUCGGGUGCCAA,0.586
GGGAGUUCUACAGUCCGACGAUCUAGGCUGGGCCUCCCCUGGGCAGGGUUCUCCAAGGGCCCGGUUUCCCGGCCCUUACCUUUCCUGAUGCCCCUGACAUCAUCAUUCUUGUGGGAGACAGCAGCCUGUAUGUUGGAAUUCUCGGGUGCCAA,0.353
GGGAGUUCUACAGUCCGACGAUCCUUUCAAUCUGAAAAUUAAAGACAUUGGAGAGAAAGGCUAACCACUUAAUGGUGCUUAAAAAUCGGGGCACUUAAAAUAAGUUUACGGCCAAAGGUGCAGCAGUGCUUAUUGGAAUUCUCGGGUGCCAA,0.309
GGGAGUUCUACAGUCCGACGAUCACUCUGUCUCAAAAAAAAAACAAAACAAAAAAAACCUCUUUGCUGGUAUAUUUGAAGAGCUUGGGAUGGAUUUGACUAAAUCUGCCCCGAGGAGGGUGAACAAGGUGAUCUGGAAUUCUCGGGUGCCAA,0.334
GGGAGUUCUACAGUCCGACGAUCGAAUUGUUUUAUGUACACUUGUCAGGCAGAAAAGGUAGUGACCGGCCCGGCGUGGGCACACAGACAGCCCGCUUUGUUCUUUCAUUUCCUCCAGCACUUUCUUUCCGCCUUGGAAUUCUCGGGUGCCAA,0.242
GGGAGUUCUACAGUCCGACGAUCGAGUGCCUAAUCUUGUGGUUAUAAUGUACAAUGAAAUAAUCUUGUGGGGGUUUUUUGUUUUCUCAAGAGGAAUUUUUUUUUUUUAUCAUUGCAGAGGUAUGUCAUUGGUUUGGAAUUCUCGGGUGCCAA,0.509
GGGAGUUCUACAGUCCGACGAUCCACAAGCUGAGCUUUCUCCUUAUGGGGCAAACCUAUGUCUAACCAGAUACAGACCAAUUAGUUUAGAUCAAAUCACCUUCCACUUGGGCUACUUGUGACUUUCCAACCUGUGGAAUUCUCGGGUGCCAA,0.217
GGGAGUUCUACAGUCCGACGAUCGUUUUAUAGUUCUUAAUCUAAACAUUUUAUAUUUCCUUCUUUUGGAAAAAACCUACAUGCUACAAGCCACCAUAUGCACAGACUAUACAGUGAGUUGAGUUGGCUCUCCCUGGAAUUCUCGGGUGCCAA,0.462
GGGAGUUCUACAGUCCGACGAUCUAGAUGGAAACAGAGACAUUGAGCCCUCUCUCUUGAUCGUAAACCACUCCAGAACGGCCACGGGUUUCCCAGAGUUCUAUGGUCUUCCCAAGAGAAUUUUUAAUUGUAAAUGGAAUUCUCGGGUGCCAA,0.387

# Series 3 — method: RNA Bind-n-Seq; form: RNA; medium: in vitro; concentration: not given; baseline: input RNA pool; reading: higher = stronger binding
# Target: RING finger protein unkempt homolog, zinc fingers 1-6, GST-SBP tag (UNK, Homo sapiens, UniProt Q9C0B0, residues 30-357)
# Notes: RNA with constant flanks, human and mouse sites, ends assumed
# Construct (chain): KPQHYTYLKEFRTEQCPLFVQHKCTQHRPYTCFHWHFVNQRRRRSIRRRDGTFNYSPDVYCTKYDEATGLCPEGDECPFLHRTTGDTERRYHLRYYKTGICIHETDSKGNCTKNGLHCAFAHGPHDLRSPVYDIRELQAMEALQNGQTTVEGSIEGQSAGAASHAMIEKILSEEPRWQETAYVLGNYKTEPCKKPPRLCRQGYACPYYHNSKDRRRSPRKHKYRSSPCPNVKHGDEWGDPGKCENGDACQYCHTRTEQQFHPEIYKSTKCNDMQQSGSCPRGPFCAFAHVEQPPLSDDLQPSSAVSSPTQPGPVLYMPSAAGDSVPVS
Strand,bound/input enrichment [ratio]
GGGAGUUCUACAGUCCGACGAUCGAAAACACAGCACUUAGGUUGGCUUAGCUGCAGCCUCCUCAGAGGUCAGAUUAUUUAUUUAAAAUUACUGGUUGCAUCAAGAACCCAUAGGGUGUACAAACGGUUCUAUACAAUCUGCAUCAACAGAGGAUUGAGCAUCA,1.81
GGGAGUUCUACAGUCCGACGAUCCCAGUCCCUCAGUCCCUUCCCGCGCGGUGCGCCGCAGCCGAGGCGAUGCGCCUCAUUCAGAACAUGUGCACCAUCGCCGAGUACCCCGCGCCGGGCAACGCCGCGGCCUCCGACUGCUGUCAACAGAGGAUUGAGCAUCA,0.0946
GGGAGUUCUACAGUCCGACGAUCGACGUGUCUCCUUCUCUGCAUGCCGAGGUGGGUUCUCCACAUUCCACAGAAGUUGAUGACUCCCUGUCCGUUUCUGUGGUGCAAACACCUACCACGUUCCAGGAAACAGAAAUGUCUCCACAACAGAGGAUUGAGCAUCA,0.198
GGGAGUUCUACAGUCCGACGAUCAACUGCAUCUGUGAUAUCGAUCACUGUUCCAACAUGGCACCCCUCUACAGUGACUCCUACUUAGUCUUCUGGGCCAUUUUCAACCUGGUGACCUUUGUGGUCAUGGUGGUUCUCUACGCUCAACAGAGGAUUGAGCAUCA,0.251
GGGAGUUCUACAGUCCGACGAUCUUUUGCAUUGUUGGUGUUGACUGUUGACUCUGUAGUGUAGGAGCAAUGAGCAUGUAAUUGUAGCACAAGUAGAGCGGAGGAUAGAGCAAAUUAUGGCUGAUGGAAAAGAUUUAAAUAGUCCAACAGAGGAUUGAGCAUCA,35.8
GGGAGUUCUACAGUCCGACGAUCCUGAACAUUUUGAAACUGGCUCCUGGUGGGCAUGUGGGCCGUUUCUGCAUCUGGACGGAGAGUGCUUUCCGGAAGUUGGAUGAGCUGUAUGGCACUUGGCGGAAGGCUGCUUCCCUCAAGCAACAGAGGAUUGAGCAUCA,0.202
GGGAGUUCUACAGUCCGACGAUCGAAGGUUUAGUUGUGAGCUUCAGAUUUUGUGAACUCCAGAUGUUGUGCGGUGUUUUUUUUUUUUUUUAAGACAACAACUAAAAAAAAUGCAAGGAAUAUGUACACUGGAACUGUAGUGGUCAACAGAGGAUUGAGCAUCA,0.401
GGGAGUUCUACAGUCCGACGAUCGCUUUCAGCCCGUGUAAAUAUUUAAAUAAAACAGUAUUAACAUUUUUGUGCUGCUUCUCGUUAGGUUGUAGAUCUAGCCAUGCUCUGGCCGCCUCUGCCAUCCUGGAGGUAGUUUUCCUUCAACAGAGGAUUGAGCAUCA,0.173
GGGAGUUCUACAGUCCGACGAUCCAGCUGCUUACACAGGAUGUAGAAAAAUUUUGUAACAGUGUAGUCGAUCUGUAUUCAAAUCUUAGUAAGCCAUUUUUAGACAUAGUUUUAUAUAUUUUCAAGUUAACAAGUGCAAUUGGACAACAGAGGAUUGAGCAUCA,223
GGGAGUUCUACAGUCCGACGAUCAUAUUUGAGGGUGGGCCAAAUGUUAUCCUCACAGUUCUUGAAUACCUUCAGGAAAGCCCCCCUGUUCCAGUAGUUGUGUGUGAAGGAACAGGCAGAGCUGCAGAUCUGCUAGCGUAUAUUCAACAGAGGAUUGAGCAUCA,0.344
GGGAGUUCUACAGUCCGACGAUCGGGGAGGGGGACCCGGGGGGCGCAGGGGACUACGGGAACGGCCUGGAGUCUGAGGAGCUGGAGCCUGGGGAGCUGCUGCCGGAGCCCGAGCCCGAAGAGGAGCCGCCCCGGCCCCGCGCCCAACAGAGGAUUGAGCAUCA,1.26

# Series 4 — method: RNA Bind-n-Seq; form: RNA; medium: in vitro; concentration: 200 nM; notes: whole 134-nt RNA, ends assumed; added: 150 mM LiCl; baseline: input library; reading: higher = stronger binding; library: 7-deaza-guanosine replaces G
# Target: Ras GTPase-activating protein-binding protein 1, full length (G3BP1, Homo sapiens, UniProt Q13283)
# Sequence of UniProt Q13283 (whole entry, looked up): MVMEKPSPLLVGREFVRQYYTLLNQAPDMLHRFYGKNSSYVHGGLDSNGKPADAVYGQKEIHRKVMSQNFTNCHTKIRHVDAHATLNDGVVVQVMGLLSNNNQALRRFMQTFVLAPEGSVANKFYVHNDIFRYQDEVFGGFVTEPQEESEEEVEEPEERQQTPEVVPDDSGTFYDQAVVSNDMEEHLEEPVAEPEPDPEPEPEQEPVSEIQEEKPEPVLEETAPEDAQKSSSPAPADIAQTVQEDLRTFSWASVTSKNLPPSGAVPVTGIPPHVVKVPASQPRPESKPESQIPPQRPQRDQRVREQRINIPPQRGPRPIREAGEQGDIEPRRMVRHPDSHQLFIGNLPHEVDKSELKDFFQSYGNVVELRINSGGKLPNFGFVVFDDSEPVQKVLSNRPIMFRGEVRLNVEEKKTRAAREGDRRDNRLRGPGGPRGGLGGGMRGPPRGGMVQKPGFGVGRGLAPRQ
Strand,log2 enrichment
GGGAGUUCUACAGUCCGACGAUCUGGAACAGCAGCUGCCACUCAGGCGUAAUUCCCACCUAGAGGAGAGUUUCACAUCCACCGAAGAAUCUUCCGAAGAAAAUGUCAACUUUUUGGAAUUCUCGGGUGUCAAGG,0.552
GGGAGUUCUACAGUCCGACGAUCCACAGACAACACGCACAAACACAGACACAGAGGGAAGGGGUUGGGAUGGGGACAGGGUGCACAGCAGGGCGGGGUAGGACCCCAGCCCCUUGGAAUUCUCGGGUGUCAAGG,0.417
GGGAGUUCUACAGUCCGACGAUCAUCAUUUCAUUUUUAUAAUUAUACAUUAGACAUUGGCACUUGUGUAAAACUGUCCCUGCAGAUUGAGCAGGAAGUAAAAACAAAUGGAAAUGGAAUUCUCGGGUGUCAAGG,-1.31
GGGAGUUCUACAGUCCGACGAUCUGGAAGUGGCGCUGGCGCCUGAAGAGUUGGAGCUGGAUCCUAUGGCCAUGACCCAGAAGUAUGAGGAGCAUGUGCGGGAGCAGCAGGCUCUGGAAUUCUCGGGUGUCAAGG,-0.064
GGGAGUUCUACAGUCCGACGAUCCACAGACAACACGCACCCACACAGACACAGAGGGAAGGGGUUGGGAUGGGGACAGGGUGCACAGCAGGGCGGGGUAGGACCCCAGCAAAUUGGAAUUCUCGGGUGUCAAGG,-0.902
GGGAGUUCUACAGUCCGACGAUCACCAUGCAGGUGGGCAUCUUUGGGAGGUGGGGCAAGGGGGGGAUAGGGAGGGGGGUAACACUUUGGGAACAGGUGGUCCCAGGUCGUUUCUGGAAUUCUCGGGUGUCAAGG,-0.201
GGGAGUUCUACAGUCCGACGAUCCUCAAGUCCUGUGCUACACAUCGUAUGUACCGAAUCGGGAAGGGGAAGGAAGGGAAAGUAUUAUGUUACGCCGUUCGGAUCUGCACUUCCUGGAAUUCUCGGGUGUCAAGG,-0.327
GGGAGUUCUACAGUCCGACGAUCUCCUGUGCUACACAUCGUAUGUACCGAAUCGGGGUUUUUUUGGGGUUUGGGGUUUGGGGAAAGUAUUAUGUUACGCCGUUCGGAUCUGCAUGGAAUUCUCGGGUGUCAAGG,0.181
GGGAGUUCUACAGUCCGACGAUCCCUCAAGUCCUGUGCUACACAUCGUAUGUACCGAAUCGGAAGGGAAGGAAGGGAAAGUAUUAUGUUACGCCGUUCGGAUCUGCACUUCCAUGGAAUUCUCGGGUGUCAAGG,-0.441
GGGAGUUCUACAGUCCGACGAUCGCAGGAAGUAAAAACAAAUGGAAAUGCUUCGGAUAGUGGCAGGGGUGGGGGUUGCUAAGGAAAGGGUGGAAAGGGAGUGGGUAAAGAGUUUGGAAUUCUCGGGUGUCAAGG,0.069
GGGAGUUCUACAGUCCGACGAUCCUCAAGUCCUGUGCUACACAUCGUAUGUACCGAAUCGGCCGGCCGGGGCCGGGAAAGUAUUAUGUUACGCCGUUCGGAUCUGCACUUCCAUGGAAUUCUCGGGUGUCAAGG,0.64

# A few entries again (series 1):
Strand,E-score
AACTAGTA,0.212
AGCAGGCA,-0.169
ATCGGTGG,-0.122
TACAGAAA,0.237
GTGAGCTA,0.0816
ACTACCAC,0.028
CGGATCCA,-0.143
AGAACCCT,-0.242
